Experimental data pooled from the literature.
Numbered parts are unrelated; each lists some results of a single study.

Series 1
Target: RNA binding protein fox-1 homolog 2, RRM domain, GST-SBP tag (RBFOX2, Homo sapiens, UniProt O43251-10, residues 100-194)
Technique: RNA Bind-n-Seq
Molecule type: RNA
Medium: in vitro
Tested at: 365 nM
Notes: natural RNA segment, single round, ends assumed
Relative to: no-protein control
Direction: higher = stronger binding
Endpoint: RBNS enrichment (R)
Target sequence (chain): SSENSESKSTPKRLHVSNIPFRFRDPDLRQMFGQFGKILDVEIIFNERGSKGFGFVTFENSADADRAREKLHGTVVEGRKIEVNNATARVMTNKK
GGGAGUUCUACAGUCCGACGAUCAUGCUAAUAUGUAAAGUUCAUGCCAUCCAGGCAUUUAAGAGCGAUCCUCAUCCCUUCAGCAAUAUGUAUUUGAGUUCACACUAUUUCUGUUUUACAGCAGUUUUGAAAAAUGGAAUUCUCGGGUGCCAA: 0.399
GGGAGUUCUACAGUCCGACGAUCUUUAACUAGAUGUAGUAACCUUUUUUUUCUUUACUUCUAAAACAGUUACAGUUUACUAAUAAAGUUAAGUCUGGUUCUGUCCUAGAGGAAAUAAAUUCACUAUUAAUUCAUGGAAUUCUCGGGUGCCAA: 0.506
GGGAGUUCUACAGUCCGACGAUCCUGUCAGGCUGCGUAUUUAUUAAGUUUGGCUAUUCUAUAAAGACUUGUAUAUACUUCCGUGGAAAGAGUCAUGCGCUUCUGGAACGCCCUCUCUUCCCUGUUCCUCUGGGUGGAAUUCUCGGGUGCCAA: 0.54
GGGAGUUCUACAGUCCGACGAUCUACUCCACCUAAUCGUUAUAUCUGGAUAUACCCAUUUUCUGCAUCUUCUUUCUCAACAAUAAAAAAUGUAACUAUUUUGAAUGCCCACAAAUCCCAUUCCAGUGUUACUUUGGAAUUCUCGGGUGCCAA: 3.53
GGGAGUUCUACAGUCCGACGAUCCUUCUGGGGACUUGGCUGCCAAGUGAUAAAAACGUUAACGACCUUUAAGUACUCUUCCAGAUGAGAGCUCUUCUACCUUACGUCCAAGAUCUGUAUAUGUGGGAACAAAUUGGAAUUCUCGGGUGCCAA: 0.442
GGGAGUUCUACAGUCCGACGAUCAUUUUCAAACUGAAAACUAAUCAAAUAUAGUGCCUAUUUAGUCUCAAAAUAAGGUAACUAUUAACUUGAUUAUACUAUAUAAUAUUCUCAAUUACAUUUGAAUUUAAAAAUGGAAUUCUCGGGUGCCAA: 0.93
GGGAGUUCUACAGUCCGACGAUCUUGUGUGUGUGGUUCAAGUGUGCACUGGGAGGCAACUGAGGUCUGAAGCCAACCAUAUGCUCCUGCCUUGCCGAUAGGUUUUAUUAUUUUUUUUAAAUUAAUGAAAAUAUUGGAAUUCUCGGGUGCCAA: 0.356
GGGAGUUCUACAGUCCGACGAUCCAACAGAAACCUAUCCUCACUGCCCUCCCCAGUCUCUCUUAAAGUUGGAAUUUACCAGUUAAUUACUCAGCAGAAUGGUGAUCACUCCAGGUAGUUUGGGGCAAAAAUCCUGGAAUUCUCGGGUGCCAA: 0.573
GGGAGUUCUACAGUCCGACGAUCGGCCAAGGCAAUGACACAUACAGAAAAGUCAUGGGCAACUUCUCCACCAAGGCUGAUUUAUGUUAUUGCUGGUCUUUUUAGGACAAUGGAUGCAGAAUGAGGUAGCAUUCUGGAAUUCUCGGGUGCCAA: 2.38
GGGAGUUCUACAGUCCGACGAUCCUUCUACCCUAGUUUCCCAUCCUCUCUCUGUGGAGGCCAAACCAACUCUUUGCCAGCAGCCACAACAUGCAUUGACAGCGGCACAGUGAGAUAUAACUGAUGGGCUUUGAUGGAAUUCUCGGGUGCCAA: 0.504
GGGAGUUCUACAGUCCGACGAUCGCUGUUUCUAAGUGCUGAGAGUUUUGCUUGAAGAGGGAGCGAGCCAUCAAGUUCCCAGCUUUUCAGGAAUGAAAGAAGUUCAGCAGUCAGAUAAUCCUUGUGUCUUGGGUUGGAAUUCUCGGGUGCCAA: 0.696
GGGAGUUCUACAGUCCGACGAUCAAAACAGCUGUAUUUUAUGUAUGCUUUACUGAUAAGUGUGCCAAUAAUAAACUGUGUUAAUGACCAAGCAAGUGAAUCUGGCUAUUUGUGUGAGUACGUGUGUAGCAAUCUGGAAUUCUCGGGUGCCAA: 2.28

Series 2
Target: Transcription factor SOX-2, HMG box (SOX2, Homo sapiens, UniProt P48431, residues 19-118)
Sequence of UniProt P48431 (19-118, looked up): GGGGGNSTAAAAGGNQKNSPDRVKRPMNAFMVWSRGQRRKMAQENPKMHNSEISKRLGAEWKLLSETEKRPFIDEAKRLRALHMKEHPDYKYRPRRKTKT
Technique: protein-binding microarray
Molecule type: double-stranded DNA, one strand shown
Medium: in vitro
Tested at: not given
Notes: k-mer, scored over probes, only values ≥0.25
Direction: higher = stronger binding
Endpoint: E-score
AATTAAA: 0.358
TTAACAA: 0.321
CATTGTC: 0.466
CATACAA: 0.369
GATTGAA: 0.302
AAAGCTG: 0.322
AAAGGCC: 0.32
ATTGACC: 0.304
ATTCATA: 0.442
CAATACA: 0.398
AATGTGC: 0.265
ACAATCA: 0.381
GAAATAA: 0.25

Series 3
Target: Interferon regulatory factor 7, full length, phosphomimetic (IRF7, Homo sapiens, UniProt Q92985, residues 1-503, S471D/S472D/S475D/S476D/S477D/S483D/S484D/S487D)
Technique: protein-binding microarray
Molecule type: double-stranded DNA, one strand shown
Medium: in vitro
Tested at: 2200 nM top
Notes: 60-bp whole probe
Together with: salmon DNA 0.4 mg/ml
Relative to: random background probes
Direction: higher = stronger binding
Endpoint: fitted relative affinity
All sequences stand within: GCCTAGCAC … GTCTTGATTCGCTTGACGCTGCTG
Construct (chain): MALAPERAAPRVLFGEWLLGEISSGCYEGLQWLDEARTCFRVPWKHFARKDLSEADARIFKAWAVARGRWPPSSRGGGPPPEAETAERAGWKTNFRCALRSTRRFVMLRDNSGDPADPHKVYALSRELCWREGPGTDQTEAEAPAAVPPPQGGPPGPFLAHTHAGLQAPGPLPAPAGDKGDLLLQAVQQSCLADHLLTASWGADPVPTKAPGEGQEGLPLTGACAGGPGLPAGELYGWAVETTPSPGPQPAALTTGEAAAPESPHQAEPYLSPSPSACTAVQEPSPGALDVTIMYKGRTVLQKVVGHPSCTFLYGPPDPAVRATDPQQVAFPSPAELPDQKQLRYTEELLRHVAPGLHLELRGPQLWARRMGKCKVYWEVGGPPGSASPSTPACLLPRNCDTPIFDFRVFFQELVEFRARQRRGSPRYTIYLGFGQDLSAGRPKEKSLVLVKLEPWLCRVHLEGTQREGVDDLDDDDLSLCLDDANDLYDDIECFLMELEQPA
TTATGTTTCGGTCTCGGTTAGTGCTAG: 6.06 z-score
TTAGAACTGAGTTTCGATTTGTGCTAG: 8.75 z-score
GACGGTTTCGGGTAACGGGACGTGCTA: 5.6 z-score
GACGGTTCCCTTTTCCTGATGTGCTAG: 2.65 z-score
GTAGATATCGGGACTGGATTAGTGCTA: -0.265 z-score
TTGGCTTATTCCAGATTTTTGTGCTAG: 0.439 z-score
TTTGGTCTCCTACTGCTTTAGTGCTAG: 1.54 z-score
GACGATATCAGTCTCGAGAAGTGCTAG: 0.222 z-score
ATAGGTATCCTACTGCTTTAGTGCTAG: 0.688 z-score
TTAGGACTGGATATCGGTTAGTGCTAG: -0.184 z-score
TTAGATATCGGGTTTCTATTAGTGCTA: 1.19 z-score
TCATGTCTGGGATGTAATACTGTGCTA: 0.47 z-score
TTAGGTACCCTTTTCCTTTAGTGCTAG: 2.12 z-score

Series 4
Target: RING finger protein unkempt homolog, zinc fingers 1-6, GST-SBP tag (UNK, Homo sapiens, UniProt Q9C0B0, residues 30-357)
Technique: RNA Bind-n-Seq
Molecule type: RNA
Medium: in vitro
Tested at: not given
Notes: RNA with constant flanks, ends assumed
Relative to: input RNA pool
Direction: higher = stronger binding
Endpoint: bound/input enrichment
Construct (chain): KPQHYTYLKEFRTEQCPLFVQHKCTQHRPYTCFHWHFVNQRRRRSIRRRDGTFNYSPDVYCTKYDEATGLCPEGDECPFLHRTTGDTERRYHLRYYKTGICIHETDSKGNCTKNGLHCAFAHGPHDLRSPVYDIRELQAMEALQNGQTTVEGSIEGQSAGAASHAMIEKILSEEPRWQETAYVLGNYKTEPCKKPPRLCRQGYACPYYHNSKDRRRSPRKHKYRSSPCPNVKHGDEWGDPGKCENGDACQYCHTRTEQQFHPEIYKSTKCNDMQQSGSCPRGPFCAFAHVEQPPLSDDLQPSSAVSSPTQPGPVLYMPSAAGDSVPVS
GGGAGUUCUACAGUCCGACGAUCUUCCGACAGUUUAUACUGGUUAUGAAUGCUUUAGAUAACAGAGCUGCCCGAAACCAUGUUAACCGAAUGUGCCUGGCAGCUGAUGUUCCUCUUAUUGAAAGUGGAACAGCUGGGUAUCUUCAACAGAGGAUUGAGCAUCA: 0.116 ratio
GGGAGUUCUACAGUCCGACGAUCUGGUUUCUAACAGCUGAAGGCAAUGAAUGGCUACUUCAAGGACAGAUAGCAGCUGGAGAUACCGAGAACAUUUCCAGUCAACCAACAAUUUCACUACAAAUUCCUGAUGAUUGCUUAUCACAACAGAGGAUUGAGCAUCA: 0.158 ratio
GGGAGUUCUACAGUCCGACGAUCCUCCCUCAACCAAUUUAUAGACACAUAGCAUCUUUCCUGUCAGUCUUCAAACUAGUAUUAACCGGCUUAAUAAUUGUUGGCAAAGAUCCUUUUGCUUUUUUCGGCAUGCAAGCUCCUAGCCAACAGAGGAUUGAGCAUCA: 67.5 ratio
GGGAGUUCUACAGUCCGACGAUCCAUCACCGGGUGGGCGAGAUGGCUCCACCCAAUGCCUACACUGUCACCGACUUGGUGGAGUACCGCAUCAUCAUAGAACAGCUCUCCAAUGGCAAGUGGGUCCCCUUUGAUGGUGAUGACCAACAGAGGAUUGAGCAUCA: 0.279 ratio
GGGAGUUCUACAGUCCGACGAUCACUGACCAAUGCACCAAAUGAAUGCUAAAAUGCACUUUAGGUUUGUUUUUGCACUUCUGACCGUAUCUUUCAACCACGAUGUACUGGGCAAGAAUUUGAAAUACAGGAUUUAUGAGGAACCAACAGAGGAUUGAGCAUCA: 0.266 ratio
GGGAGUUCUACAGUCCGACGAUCUGUAACUUAUCUGUAAAAGGUUCCCCCCCCCUACUGUCAAAAAAUAUGCAUGUAUAGUAAUCCGGACUUCAUUCCUCCAUGUUUUCUUCCCUUAUCUUACUGUCAUUGUCCUUAAACCUUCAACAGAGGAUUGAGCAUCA: 1.25 ratio
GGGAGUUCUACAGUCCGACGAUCGCUUUUCAAGCCAAGGAUGUGGAAGGAUCUACUUCUCCUCAAAUAGGAGAUAAGGUUGAAUUCCGUAUUAGUGACAAACAGAGGCCUGGACAGCAGAUUGCAACUUGCGUGAGACUUUUACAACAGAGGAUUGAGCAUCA: 0.199 ratio
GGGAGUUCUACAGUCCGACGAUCUUAAAGAUCAGCAAUUUAAAGAAAAUUUUAAAAGGCAUCUUGGAUUACAAUCAUGAGAUUUCCGGACAGCAGAUUAAUGAUUUCACCCUUCCUGACGUGAACCUCAUUGGGGAGCAUUCGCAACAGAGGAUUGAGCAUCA: 0.262 ratio
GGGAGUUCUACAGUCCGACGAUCUCAUCAAUUGCAACUUCUUCAGUGAAAGGUCUUUCAACUACAGGAAACUCGUCUCUUAACCGUACAUCCAACACUAAAGUGUCAGCGAUACCUACCAAUAUGGCUGCCAAGAAAACAUCUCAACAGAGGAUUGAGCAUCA: 0.126 ratio
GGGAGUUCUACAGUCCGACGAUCCUUGCAGUGAGGAAAAGAACAAUUAUUGCUCUUGGCCACCUAGUUAUGAGCUGCGGAAAUACCGUUUUUGUAGACCUUAUUGAACAUCUGUUGUCAGAGUUGUCCAAAAAUGACUCCAUGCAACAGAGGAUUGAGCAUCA: 0.297 ratio
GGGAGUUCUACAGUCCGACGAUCUCAGACAUGGACUACAUCCAGACCGACGCCAUCAUCAACUAUGGAAACUCGGGAGGCCCGUCCGUAAACCUGGACGGUGAAGUGAUUGGAAUUAACACUUUGAAAGUGACAGCUGGAAUCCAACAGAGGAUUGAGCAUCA: 0.0934 ratio

Excerpt of the above (series 4):
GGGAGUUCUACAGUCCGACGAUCUGUAACUUAUCUGUAAAAGGUUCCCCCCCCCUACUGUCAAAAAAUAUGCAUGUAUAGUAAUCCGGACUUCAUUCCUCCAUGUUUUCUUCCCUUAUCUUACUGUCAUUGUCCUUAAACCUUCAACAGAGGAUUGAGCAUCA: 1.25 ratio
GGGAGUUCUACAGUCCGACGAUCGCUUUUCAAGCCAAGGAUGUGGAAGGAUCUACUUCUCCUCAAAUAGGAGAUAAGGUUGAAUUCCGUAUUAGUGACAAACAGAGGCCUGGACAGCAGAUUGCAACUUGCGUGAGACUUUUACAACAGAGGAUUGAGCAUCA: 0.199 ratio
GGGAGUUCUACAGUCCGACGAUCUCAGACAUGGACUACAUCCAGACCGACGCCAUCAUCAACUAUGGAAACUCGGGAGGCCCGUCCGUAAACCUGGACGGUGAAGUGAUUGGAAUUAACACUUUGAAAGUGACAGCUGGAAUCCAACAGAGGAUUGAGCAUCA: 0.0934 ratio
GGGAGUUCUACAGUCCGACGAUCCUUGCAGUGAGGAAAAGAACAAUUAUUGCUCUUGGCCACCUAGUUAUGAGCUGCGGAAAUACCGUUUUUGUAGACCUUAUUGAACAUCUGUUGUCAGAGUUGUCCAAAAAUGACUCCAUGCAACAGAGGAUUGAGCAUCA: 0.297 ratio
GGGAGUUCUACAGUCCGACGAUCUGGUUUCUAACAGCUGAAGGCAAUGAAUGGCUACUUCAAGGACAGAUAGCAGCUGGAGAUACCGAGAACAUUUCCAGUCAACCAACAAUUUCACUACAAAUUCCUGAUGAUUGCUUAUCACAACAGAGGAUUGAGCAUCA: 0.158 ratio
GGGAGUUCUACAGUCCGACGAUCCAUCACCGGGUGGGCGAGAUGGCUCCACCCAAUGCCUACACUGUCACCGACUUGGUGGAGUACCGCAUCAUCAUAGAACAGCUCUCCAAUGGCAAGUGGGUCCCCUUUGAUGGUGAUGACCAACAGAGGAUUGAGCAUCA: 0.279 ratio
